Results pooled from the literature.
Protocols differ between the studies behind these lines. Values joined by “and” are separate records of one study, mostly repeats; a detail may differ. ± marks the error that the study gave. ≈ marks a conversion by molar mass, not a printed value.

NC1(C(=O)N[C@@H](CCO)c2ccc(Cl)cc2)CCN(c2nc[nH]c3nccc2-3)CC1 — incidence of Vomiting (metastatic CRPC patients; 400 mg b.i.d., any grade, treatment-related, together with: enzalutamide 160 mg daily): 42.9%
Clc1ccc(-c2cc(Cl)c(Cl)cc2Cl)cc1Cl — dose fraction in skim milk (whole cow milk; 50 nM nominal): 4.03%
C=CC(=O)Nc1cc(Nc2nccc(Nc3cc(Cl)c(F)cc3C(C)(C)O)n2)c(OC)cc1N1CC[C@@H](N(C)C)C1 — patients with pneumonia (human patients; oral, 300 mg, treatment-emergent adverse events): 9.8%
CCc1ccc(CC/C=C/c2ccc3c(c2)C(=O)CC3)cc1 — Urea (Sprague-Dawley rat, female; oral, 450 mg/kg/day, 14 days): 5.47 mM
NC(=O)[C@H]1CCN(c2ncnc(N)c2F)C[C@@H]1N1CCC[C@@H](Nc2cc(Cl)cc(C(F)(F)F)c2)C1=O — grade ≥3 leukocytosis (B-cell malignancy patients; oral, 164 mg twice daily, dose): 0%
Cc1cccc(Cn2nc(C3CC3)c3c(NC(=O)c4cnc5cc(OCCN6CCN(C)CC6)ccn45)cccc32)n1 — adverse events incidence (refers to: ALT increased; human advanced solid tumours; oral, 400 mg, all-causality): 28.6%
N#Cc1ccc(N2C[C@H](N)C[C@H](C(F)(F)F)C2)c2cccnc12 — NOAEL (dog; GLP toxicity study): 5 mg/kg
CC1(C)[C@H](C=C(Cl)Cl)[C@H]1C(=O)OCc1cccc(Oc2ccccc2)c1 — enzyme contribution to clearance (refers to: CYP2C8; human, age 1 year, recombinant human CYP2C8; 0.1 µM): 0.04%
COc1cc2c(Oc3ccc4[nH]c(C)cc4c3F)ccnc2cc1OCC1(N)CC1 — grade 1 or 2 Epistaxis (paediatric recurrent refractory sarcoma; 8 mg/kg): 33.3%
O=C1Nc2cc3[nH]nc(-c4ccncc4)c3cc2CN1Cc1ccccc1 — patients with nausea (CTCAE v4.03; human, relapsed or refractory advanced solid tumours; intravenous, 4.8 mg/kg, pooled schedules): 50%
CC[C@H](C)[C@H](NC(=O)[C@H](Cc1ccccc1)NC(=O)[C@H](CCC(=O)O)NC(=O)[C@H](CCCNC(=N)N)NC(=O)[C@H](C)NC(=O)[C@H](C)NC(=O)[C@H](CCC(N)=O)NC(=O)[C@H](CCC(=O)O)NC(=O)[C@H](CCC(=O)O)NC(=O)[C@H](CC(C)C)NC(=O)[C@H](Cc1ccc(O)cc1)NC(=O)[C@H](CO)NC(=O)[C@H](CO)NC(=O)[C@@H](NC(=O)[C@H](CC(=O)O)NC(=O)[C@H](CO)NC(=O)[C@@H](NC(=O)[C@H](Cc1ccccc1)NC(=O)[C@@H](NC(=O)CNC(=O)[C@H](CCC(=O)O)NC(=O)[C@H](C)NC(=O)CCc1cnc[nH]1)[C@@H](C)O)[C@@H](C)O)C(C)C)C(=O)N[C@@H](C)C(=O)N[C@@H](Cc1c[nH]c2ccccc12)C(=O)N[C@@H](CC(C)C)C(=O)N[C@H](C(=O)N[C@@H](CCCNC(=N)N)C(=O)NCC(=O)N[C@@H](CCCNC(=N)N)C(=O)N[C@@H](CCCCNC(=O)COCCOCCNC(=O)COCCOCCNC(=O)CC[C@H](NC(=O)CCCCCCCCCCCCCCCCC(=O)O)C(=O)O)C(=O)NCC(=O)NCC(=O)N[C@@H](CO)C(=O)N[C@@H](CCCCNC(=O)[C@H](CCCCNC(=O)[C@H](CCCCNc1c(NCCCCCN(O)C(=O)CCC(=O)NCCCCCN(O)C(=O)CCC(=O)NCCCCCN(O)C(C)=O)c(=O)c1=O)Nc1c(NCCCCCN(O)C(=O)CCC(=O)NCCCCCN(O)C(=O)CCC(=O)NCCCCCN(O)C(C)=O)c(=O)c1=O)NC(=O)[C@H](CCCCNc1c(NCCCCCN(O)C(=O)CCC(=O)NCCCCCN(O)C(=O)CCC(=O)NCCCCCN(O)C(C)=O)c(=O)c1=O)Nc1c(NCCCCCN(O)C(=O)CCC(=O)NCCCCCN(O)C(=O)CCC(=O)NCCCCCN(O)C(C)=O)c(=O)c1=O)C(=O)O)C(C)C [zirconium-89 labelled] — tissue uptake (ex vivo gamma counting; male Sprague-Dawley rats, blood; intravenous, 1 nmol, 24 h): 0.423 %ID/g
C[C@@H]1OC(=O)NN=C1c1ccc(-c2ccc(F)cc2)c(C(F)(F)F)c1 — patients with adverse event (phase I trial, refers to: Pneumonitis worst grade 3; human patients; dose not given, all dose groups): 20%
COc1ccc2nc3cc(Cl)ccc3c(Nc3cc(CN4CCCC4)c(O)c(CN4CCCC4)c3)c2n1 — platelet distribution width (mouse, blood; intraperitoneal, 14 mg/kg): 15.5%
CC(C)Nc1ccnc(Nc2cccc(-c3cccnc3)c2)n1 — blood chemistry (refers to: Glucose; mouse, blood; intraperitoneal, 10 mg/kg): 133 mg/dL
O=c1ccc2ncc(=O)n3c2n1C[C@H]3CN1CCC(NCc2cc3c(cn2)OCCC3)CC1 — AUC(0-24) (healthy human volunteers, urine; oral, dose not given, arithmetic mean, together with: rifampicin): 1630 µg·h/mL
O=C(O)CCCOc1ccc(F)cc1-c1cc(-c2ccccc2C(F)(F)F)n(-c2ccccc2)n1 — prothrombin time (Crl:CD(SD) rat, female; intravenous, 25 µg/kg, 1 days post-dose): 9.7 ± 0.3 s
COc1cc(Nc2ncc(F)c(Nc3ccc4c(n3)NC(=O)C(C)(C)O4)n2)cc(OC)c1OC — solubility (HEPES buffer; 24 h, pH 7.4, 1% DMSO): 2.4 µM (≈ 1.13 µg/mL)
Cn1nc(NS(C)(=O)=O)c2c(Cl)ccc(-n3c([C@H](Cc4cc(F)cc(F)c4)NC(=O)Cn4nc(C(F)F)c5c4C(F)(F)[C@@H]4C[C@H]54)nc4nc(OCCC(F)(F)F)ccc4c3=O)c21 — drug-related adverse events (refers to: total bile acids increased; human; 625 mg, powder in bottle): 0%
CC(C)C[C@H](NC(=O)[C@H](CCCCN)NC(=O)OCC1c2ccccc2-c2ccccc21)C(=O)N[C@H](C(=O)N[C@@H](Cc1ccccc1)C(=O)N[C@@H](Cc1ccccc1)C(=O)N[C@@H](CCCCN)C(=O)NCC(=O)N[C@@H](Cc1ccccc1)C(=O)N[C@@H](C)C(=O)N[C@@H](Cc1c[nH]c2ccccc12)C(=O)N[C@@H](CC(N)=O)C(=O)N[C@H](C(=O)N[C@H]1CSSC[C@@H](C(=O)N[C@@H](Cc2c[nH]cn2)C(=O)N[C@@H](CCCNC(=N)N)C(=O)N[C@@H](CCCNC(=N)N)C(=O)N[C@@H](C)C(=O)N[C@@H](CC(N)=O)C(N)=O)NC(=O)[C@H](C(C)C)NC(=O)[C@H](CCCNC(=N)N)NC(=O)[C@H](C(C)C)NC(=O)CNC(=O)[C@H](CC(N)=O)NC(=O)[C@H](CCCNC(=N)N)NC(=O)[C@H](Cc2ccc(O)cc2)NC(=O)[C@H](C(C)C)NC1=O)C(C)C)C(C)C — AST (ICR mice, serum; intraperitoneal, 10 mg/kg, day 5): 28.2 ± 1.08 IU/L
O=S(=O)(Nc1ccccc1)c1ccc(NC(=S)Nc2ccccc2)cc1 — blood chemistry level (refers to: TRIG; male mouse, blood; oral, 5 mg/kg daily, 14 days): 214 mg/dL
Oc1ccc(CSCc2ccc(O)cc2)cc1 — body weight gain (ICR mice male; oral, 1500 mg/kg, day 15, acute toxicity; reference: day 1): 6.42 ± 2.01 g
C[C@]1(CO)Cc2ncn(-c3ccc(C#N)c(Cl)c3)c2C(=O)O1 — subjects with severe TEAEs (human; 2 mg single dose): 16.7%
COc1cccc(Oc2ccccc2NC(=O)CNC(=O)c2cccc3ccccc23)c1 — total protein (esterase-deficient SCID mice, male; oral, 100 mg/kg/day, 14 days, toxicity study): 5.2 g/dL and 5.5 g/dL and 5.4 g/dL
CO[C@H]1C[C@@H]2CC[C@@H](C)[C@@](O)(O2)C(=O)C(=O)N2CCCC[C@H]2C(=O)O[C@H]([C@H](C)C[C@@H]2CC[C@@H](OC(=O)NCCOCCOCCOCCOCCOCCOCCOCCOCCC(=O)N3CCc4cc(Cn5nc(-c6ccc7oc(N)nc7c6)c6c(N)ncnc65)ccc4C3)[C@H](OC)C2)C[C@@H](O)[C@H](C)/C=C(\C)[C@@H](O)[C@@H](OC)C(=O)[C@H](C)C[C@H](C)/C=C/C=C/C=C/1C — incidence of Nausea TEAE (patients with advanced solid tumours; intravenous, 1.6 mg/3 mg weekly, grade ≥3): 0%
CC(C)(O)c1cc(Nc2cc(Oc3cn(C4CC4)nc3C3CCOCC3)ccn2)ccn1 — treatment-related adverse events (Anemia; patients with advanced cancer, Japanese cohort; oral, dose not given, grade ≥3): 0%
COc1ccc(C[C@@H]2NC(=O)[C@H]([C@@H](C)O)NC(=O)[C@@H]3[C@@H]4CCN3C(=O)[C@@H]3Cc5cn(c6ccc(F)cc56)CCCCCCN(Cc5ccc(cc5)CCNC(=O)[C@]5(C)CCCN5C2=O)C(=O)CCC(=O)N[C@@H](C)C(=O)N[C@H](CNC(=O)CCCCC[N+](C)(C)C)C(=O)N[C@@H](Cc2cccc(c2)CNC(=O)CO4)C(=O)N3)cc1 — participants with adverse event (refers to: Constipation; humans; concentration not given, Study-003): 3.2%
